Assay results pooled from the literature.
Protocols differ between the studies behind these lines. Values joined by “and” are separate records of one study, mostly repeats; a detail may differ. Numbers after ± are the reported error.
CHRM1: Muscarinic acetylcholine receptor M1 (CHRM1, Homo sapiens, UniProt P11229)
Sequence of UniProt P11229 (whole entry, looked up): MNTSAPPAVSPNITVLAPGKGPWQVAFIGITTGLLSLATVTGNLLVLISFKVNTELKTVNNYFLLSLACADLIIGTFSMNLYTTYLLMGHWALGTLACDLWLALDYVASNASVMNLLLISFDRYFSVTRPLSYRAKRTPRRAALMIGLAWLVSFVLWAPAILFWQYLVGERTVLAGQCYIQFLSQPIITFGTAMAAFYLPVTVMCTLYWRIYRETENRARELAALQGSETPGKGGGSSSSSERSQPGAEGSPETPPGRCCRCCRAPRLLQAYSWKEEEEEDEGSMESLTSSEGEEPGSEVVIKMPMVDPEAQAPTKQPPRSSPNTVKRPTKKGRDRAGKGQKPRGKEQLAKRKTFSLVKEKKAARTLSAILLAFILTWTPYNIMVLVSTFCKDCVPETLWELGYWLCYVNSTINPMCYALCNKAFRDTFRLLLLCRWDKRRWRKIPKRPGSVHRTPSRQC
SCN10A: Sodium channel protein type 10 subunit alpha (SCN10A, Homo sapiens, UniProt Q9Y5Y9)
Sequence of UniProt Q9Y5Y9 (whole entry, looked up): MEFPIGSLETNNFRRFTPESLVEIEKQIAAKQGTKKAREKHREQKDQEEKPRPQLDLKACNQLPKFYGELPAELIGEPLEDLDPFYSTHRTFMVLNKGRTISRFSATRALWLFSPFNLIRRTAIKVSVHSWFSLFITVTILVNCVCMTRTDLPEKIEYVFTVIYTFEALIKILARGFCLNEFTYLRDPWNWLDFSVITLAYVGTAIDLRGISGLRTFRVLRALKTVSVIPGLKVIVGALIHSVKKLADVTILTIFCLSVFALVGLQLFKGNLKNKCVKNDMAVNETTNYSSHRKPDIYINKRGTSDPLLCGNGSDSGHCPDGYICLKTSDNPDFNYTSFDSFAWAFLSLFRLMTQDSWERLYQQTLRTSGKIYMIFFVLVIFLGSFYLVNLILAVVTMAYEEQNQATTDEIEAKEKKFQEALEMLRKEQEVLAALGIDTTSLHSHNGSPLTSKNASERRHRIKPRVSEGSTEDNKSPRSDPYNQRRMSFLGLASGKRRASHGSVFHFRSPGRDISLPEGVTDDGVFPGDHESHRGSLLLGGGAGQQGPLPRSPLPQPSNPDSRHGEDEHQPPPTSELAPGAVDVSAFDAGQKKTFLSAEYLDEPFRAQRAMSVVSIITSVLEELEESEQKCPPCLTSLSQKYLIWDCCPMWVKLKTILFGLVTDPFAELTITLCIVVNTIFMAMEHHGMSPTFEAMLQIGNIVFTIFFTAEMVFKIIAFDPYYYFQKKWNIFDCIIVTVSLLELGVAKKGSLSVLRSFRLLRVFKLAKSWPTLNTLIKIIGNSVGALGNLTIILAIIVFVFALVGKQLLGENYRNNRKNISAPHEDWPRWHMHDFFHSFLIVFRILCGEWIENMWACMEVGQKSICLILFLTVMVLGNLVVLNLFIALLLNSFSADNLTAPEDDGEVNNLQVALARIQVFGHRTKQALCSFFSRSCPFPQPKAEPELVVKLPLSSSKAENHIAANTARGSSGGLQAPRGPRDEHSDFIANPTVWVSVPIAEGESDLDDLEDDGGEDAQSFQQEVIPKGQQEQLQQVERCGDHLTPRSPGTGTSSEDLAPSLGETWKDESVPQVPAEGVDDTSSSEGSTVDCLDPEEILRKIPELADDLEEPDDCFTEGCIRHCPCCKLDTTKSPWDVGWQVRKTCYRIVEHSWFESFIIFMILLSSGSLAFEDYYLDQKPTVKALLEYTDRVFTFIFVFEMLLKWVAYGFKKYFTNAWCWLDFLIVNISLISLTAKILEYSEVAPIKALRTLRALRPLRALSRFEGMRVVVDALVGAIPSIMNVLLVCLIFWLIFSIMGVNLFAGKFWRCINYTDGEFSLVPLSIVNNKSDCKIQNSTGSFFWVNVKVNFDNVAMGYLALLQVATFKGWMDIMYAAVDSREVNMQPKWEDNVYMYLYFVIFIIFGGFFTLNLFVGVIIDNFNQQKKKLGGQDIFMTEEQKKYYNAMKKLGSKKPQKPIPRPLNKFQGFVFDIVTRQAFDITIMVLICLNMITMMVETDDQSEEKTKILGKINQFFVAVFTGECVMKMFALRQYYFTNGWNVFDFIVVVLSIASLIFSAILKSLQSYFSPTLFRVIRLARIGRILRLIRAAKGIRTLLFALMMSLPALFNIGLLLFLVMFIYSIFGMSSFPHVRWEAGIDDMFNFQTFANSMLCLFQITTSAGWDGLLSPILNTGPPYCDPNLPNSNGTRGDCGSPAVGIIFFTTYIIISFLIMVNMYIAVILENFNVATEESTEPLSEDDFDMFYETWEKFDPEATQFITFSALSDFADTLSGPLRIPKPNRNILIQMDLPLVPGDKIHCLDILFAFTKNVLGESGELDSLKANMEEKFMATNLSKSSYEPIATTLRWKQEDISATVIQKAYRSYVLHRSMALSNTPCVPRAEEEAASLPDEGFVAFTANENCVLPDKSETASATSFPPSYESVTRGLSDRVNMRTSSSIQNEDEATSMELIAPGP
T1: G-quadruplex DNAzyme, parallel; GGGTAGGGCGGGTTGGG
T2: DNA hairpin, hairpin; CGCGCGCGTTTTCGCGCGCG
T3: c-di-GMP riboswitch (Clostridium acetobutylicum); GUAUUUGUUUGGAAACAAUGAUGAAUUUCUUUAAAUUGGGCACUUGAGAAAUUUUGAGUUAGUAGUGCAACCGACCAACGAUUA
Sequence of UniProt P12369 (whole entry, unmodified, looked up): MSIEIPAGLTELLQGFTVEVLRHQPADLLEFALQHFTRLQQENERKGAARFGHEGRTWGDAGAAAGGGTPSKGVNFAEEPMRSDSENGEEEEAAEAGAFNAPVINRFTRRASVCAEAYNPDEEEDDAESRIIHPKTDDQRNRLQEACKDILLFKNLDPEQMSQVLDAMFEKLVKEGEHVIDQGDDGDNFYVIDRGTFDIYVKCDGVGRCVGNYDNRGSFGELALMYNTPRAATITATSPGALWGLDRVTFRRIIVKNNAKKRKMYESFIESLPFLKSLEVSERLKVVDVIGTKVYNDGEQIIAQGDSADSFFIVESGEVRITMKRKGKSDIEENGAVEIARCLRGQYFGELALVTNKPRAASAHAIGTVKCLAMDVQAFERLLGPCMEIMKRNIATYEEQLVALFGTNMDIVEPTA
Sequence of UniProt P14434 (whole entry, looked up): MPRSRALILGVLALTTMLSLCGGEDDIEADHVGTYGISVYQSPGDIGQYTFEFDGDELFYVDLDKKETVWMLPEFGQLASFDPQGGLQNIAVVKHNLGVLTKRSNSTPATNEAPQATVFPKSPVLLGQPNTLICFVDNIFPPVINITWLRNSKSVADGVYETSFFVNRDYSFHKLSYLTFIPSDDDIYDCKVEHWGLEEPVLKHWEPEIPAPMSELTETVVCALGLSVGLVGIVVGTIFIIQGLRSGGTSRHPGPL
Sequence of UniProt P11607 (whole entry, looked up): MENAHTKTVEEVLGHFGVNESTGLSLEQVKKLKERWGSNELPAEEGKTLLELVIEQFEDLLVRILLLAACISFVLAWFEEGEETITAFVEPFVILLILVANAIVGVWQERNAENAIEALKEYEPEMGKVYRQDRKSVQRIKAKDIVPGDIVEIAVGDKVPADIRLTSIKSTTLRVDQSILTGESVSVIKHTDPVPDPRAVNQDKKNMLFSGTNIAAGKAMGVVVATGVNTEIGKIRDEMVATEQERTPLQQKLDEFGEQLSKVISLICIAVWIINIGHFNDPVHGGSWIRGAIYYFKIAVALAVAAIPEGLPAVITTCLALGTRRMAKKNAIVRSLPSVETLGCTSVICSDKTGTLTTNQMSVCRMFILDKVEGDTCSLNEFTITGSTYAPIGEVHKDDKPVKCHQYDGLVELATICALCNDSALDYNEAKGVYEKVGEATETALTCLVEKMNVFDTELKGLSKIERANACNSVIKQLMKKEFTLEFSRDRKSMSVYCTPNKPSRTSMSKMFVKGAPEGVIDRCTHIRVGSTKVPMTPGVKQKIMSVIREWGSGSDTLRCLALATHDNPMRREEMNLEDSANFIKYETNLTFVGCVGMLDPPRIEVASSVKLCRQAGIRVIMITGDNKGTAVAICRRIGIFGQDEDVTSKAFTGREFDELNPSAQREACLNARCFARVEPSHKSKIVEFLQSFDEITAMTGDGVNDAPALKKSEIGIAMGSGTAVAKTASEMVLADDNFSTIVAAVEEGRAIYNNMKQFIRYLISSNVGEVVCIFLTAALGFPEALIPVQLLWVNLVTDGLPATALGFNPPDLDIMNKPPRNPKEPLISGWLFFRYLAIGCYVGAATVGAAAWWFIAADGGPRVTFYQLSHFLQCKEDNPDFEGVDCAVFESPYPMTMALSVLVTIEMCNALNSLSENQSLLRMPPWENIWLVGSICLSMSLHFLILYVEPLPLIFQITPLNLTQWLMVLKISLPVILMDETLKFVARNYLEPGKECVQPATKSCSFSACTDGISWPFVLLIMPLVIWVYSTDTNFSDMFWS
Sequence of UniProt P14483 (whole entry, looked up): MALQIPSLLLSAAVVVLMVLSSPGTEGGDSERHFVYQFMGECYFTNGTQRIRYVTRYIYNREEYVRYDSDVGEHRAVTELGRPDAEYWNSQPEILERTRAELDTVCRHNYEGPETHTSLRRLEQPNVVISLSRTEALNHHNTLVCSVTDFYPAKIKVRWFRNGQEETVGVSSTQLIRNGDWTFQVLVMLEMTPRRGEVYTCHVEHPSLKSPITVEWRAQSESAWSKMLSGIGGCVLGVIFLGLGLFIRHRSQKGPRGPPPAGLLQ
Sequence of UniProt Q99952 (whole entry, looked up): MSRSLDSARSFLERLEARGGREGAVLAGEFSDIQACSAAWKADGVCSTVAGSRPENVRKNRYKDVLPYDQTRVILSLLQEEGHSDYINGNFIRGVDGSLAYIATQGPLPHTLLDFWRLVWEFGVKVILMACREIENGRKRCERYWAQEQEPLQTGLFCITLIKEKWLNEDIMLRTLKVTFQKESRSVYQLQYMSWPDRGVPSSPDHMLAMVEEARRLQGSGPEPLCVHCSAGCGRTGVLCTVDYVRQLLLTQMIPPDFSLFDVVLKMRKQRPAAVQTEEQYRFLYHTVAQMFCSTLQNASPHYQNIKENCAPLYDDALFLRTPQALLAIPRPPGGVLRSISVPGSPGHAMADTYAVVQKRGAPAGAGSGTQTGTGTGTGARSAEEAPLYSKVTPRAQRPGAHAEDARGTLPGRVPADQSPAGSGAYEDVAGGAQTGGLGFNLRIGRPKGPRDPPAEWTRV
Sequence of UniProt O58586 (whole entry, looked up): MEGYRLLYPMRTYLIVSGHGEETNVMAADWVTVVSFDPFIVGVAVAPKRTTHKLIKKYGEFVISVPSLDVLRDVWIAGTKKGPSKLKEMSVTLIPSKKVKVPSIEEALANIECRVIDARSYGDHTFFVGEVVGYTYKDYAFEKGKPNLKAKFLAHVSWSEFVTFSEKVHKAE

C=CC(=O)N1CCC(CCCC(=O)N2CCN(c3nc(-c4cnc(N)nc4C(F)F)nc(N4CCOCC4)n3)CC2)CC1  kinact/KI (Phosphatidylinositol 4,5-bisphosphate 3-kinase catalytic subunit alpha isoform (PIK3CA, Homo sapiens, UniProt P42336); covalent inhibitor): < 100000 M⁻¹ s⁻¹
O=S(=O)(Nc1ccccc1Cl)C1CC2OC1C(c1ccc(O)cc1)=C2c1ccc(O)cc1 (stereo not shown)  efficacy (Estrogen receptor beta (ESR2, Homo sapiens, UniProt Q92731); reporter gene, antagonist; HepG2; added: estradiol 10 nM; relative to: E2 response, negative is inverse agonism): -5 ± 3%
Cn1cc(-c2ccc(COc3ccccc3-c3cc(=O)n(C4CCCCC4O)cn3)c(F)c2)cn1 (stereo not shown)  change in baseline activity (CHRM1; allosteric agonist, IP1 accumulation; CHO-M1 cells; 10 µM, unit not given; relative to: maximum ACh response): 82.9 ± 3.4
C=CC1=C(C)C2=Cc3c(C=C)c(C)c4[n]3[Fe]([Cl])[n]3c(c(C)c(CCC(=O)O)c3=CC3=NC(=C4)C(C)=C3CCC(=O)O)=CC1=N2  Kd (T1, G-quadruplex DNAzyme, parallel; Soret absorption titration; pH 5.1, 25 °C, K+ 10 mM): 36 nM
NC(=O)[C@H](CCCN=C(N)CF)NC(=O)c1ccccc1  PAD4 labelling (Protein-arginine deiminase type-4 (PADI4, Homo sapiens, UniProt Q9UM07); inhibitor; MCF7, estrogen-stimulated, whole cell extract; concentration not given, 30 min, added: BFA probe and calcium): inhibited
CCCCOC(=O)c1scc(C)c1NC(=O)C(C)NCCC (stereo not shown)  capacity factor k′ (SCN10A; cell membrane chromatography; higher = stronger binding): 26
Oc1ccc(/C=C/c2cccc(O)c2)cc1  binding (Delta-type opioid receptor (OPRD1, Homo sapiens, UniProt P41143); ligand, radioligand binding; 10 µM, 60 min, added: [3H]enkephalin; negative = increased radioligand binding): 64.2%
CCCN(CCC)c1ncnc2c1ncn2[C@@H]1O[C@@H]2COP(=O)(O)O[C@H]2[C@H]1O  selectivity ratio (cAMP-dependent protein kinase type II-beta regulatory subunit, holoenzyme with catalytic subunit (Prkar2b, Rattus norvegicus, UniProt P12369, S112A); PKA holoenzyme activation, activator, fluorescence anisotropy; relative to: RIIβ over RIα, higher = RIIβ-selective): 9 and 9.2
Cn1cc(-c2ccc(COc3ccccc3-c3cc(=O)n(C4CCCCC4O)cn3)cc2)cn1 (stereo not shown)  change in baseline activity (CHRM1; allosteric agonist, IP1 accumulation; CHO-M1 cells; 1 µM, unit not given; relative to: maximum ACh response): 55.1 ± 2.4
Nc1ncnc2c1ncn2[C@@H]1O[C@H](CO)C[C@H]1O  Vmax (Adenosine deaminase (Homo sapiens, UniProt P00813); substrate; human erythrocytes; 30 min, 37 °C): 0.1 nmol/min/mg
O=C1C=CCCC1  conversion (Uncharacterized protein PH0856 (Pyrococcus horikoshii, UniProt O58586); 24 h, pH 7, 30 °C, aerobic, added: 10 mM substrate, 15 mM NAD(P)H): 4 to 7%
C[C@H](N)C(=O)N[C@@H](CCCNC(=N)N)C(=O)N[C@H](C(=O)N[C@@H](CCCCN)C(=O)N[C@@H](CCC(N)=O)C(=O)N[C@H](C(=O)N[C@@H](C)C(=O)N[C@@H](CCCNC(=N)N)C(=O)N[C@@H](CCCCN)C(=O)N[C@@H](COP(=O)(O)O)C(=O)O)[C@@H](C)O)[C@@H](C)O  binding enthalpy ΔH (Autoimmune regulator, PHD1 domain (AIRE, Homo sapiens, UniProt O43918); ITC; concentration not given, pH 7.2, 23 °C): -9.6 ± 0.1 kcal/mol
O=c1cc(-c2ccccc2OCc2ccc(Cl)nc2)ncn1C1CCCCC1O (stereo not shown)  ΔpEC50 of ACh (CHRM1; positive allosteric modulator, IP1 accumulation; CHO-M1 cells; 1 µM, 60 min, 37 °C, added: ACh; relative to: ACh alone, higher = stronger potentiation): 0.56 ± 0.08 log units
O=C(O)c1ccccc1-c1ccc(Cn2c3ccccc3c3cc(Br)ccc32)cc1  Emax (Peroxisome proliferator-activated receptor gamma (PPARG, Homo sapiens, UniProt P37231); COS-7; 10 µM, 39 h): 35.8%
O=C(O)[C@H]1O[C@@H](Oc2ccc3c(=O)c(O)c(-c4ccc(O)cc4)oc3c2)[C@H](O)[C@@H](O)[C@@H]1O  Vmax (UDP-glucuronosyltransferase 1A1 (UGT1A1, Homo sapiens, UniProt P22309); glucuronidation, substrate, Supersomes): 3.55 ± 1.11 nmol/min/mg
NS(=O)(=O)c1ccc(COc2ccccc2-c2cc(=O)n(C3CCCCC3O)cn2)cc1 (stereo not shown)  change in baseline activity (CHRM1; allosteric agonist, IP1 accumulation; CHO-M1 cells; 10 µM, unit not given; relative to: maximum ACh response): 64.2 ± 2.5
Fc1ccc2[nH]ccc2c1  conversion (Dehaloperoxidase B, ferric (Amphitrite ornata, UniProt Q9NAV7); substrate, HPLC; 5% methanol; 5 min, pH 7, 25 °C, enzyme 10 µM, added: H2O2 500 µM): 26%
c1cc(Nc2ccc(NC3=NCCN3)cc2)ccc1NC1=NCCN1  binding (T2, DNA hairpin, hairpin; SPR; pH 6.25, 25 °C, Na+ 100 mM, too weak to fit): binds weakly
Nc1nc2c(ncn2[C@@H]2O[C@@H]3COP(O)(=S)O[C@H]4[C@@H](O)[C@H](n5cnc6c(=O)[nH]c(N)nc65)O[C@@H]4COP(O)(=S)O[C@H]3[C@H]2O)c(=O)[nH]1 (stereo partly shown)  Kd (T3, c-di-GMP riboswitch (Clostridium acetobutylicum); competitor, competition gel-shift; 4-24 h, pH 6.8, 22 °C, added: radiolabelled c-di-GMP): 3.6 nM and 4 nM
CCNC(=O)c1ccc(COc2ccccc2-c2cc(=O)n(C3CCCCC3O)cn2)cc1 (stereo not shown)  change in baseline activity (CHRM1; allosteric agonist, IP1 accumulation; CHO-M1 cells; 10 µM, unit not given; relative to: maximum ACh response): 99.8 ± 2.7
SLFFSAQPFEITAST  binding (H2-Aa/H2-Ab1 (Mus musculus, UniProt P14434+P14483); MHC class II binding, competitive radioligand binding; peptide; concentration not given): binds
O=[N+]([O-])c1ccc(OP(=O)(O)O)cc1  kcat/Km (Tyrosine-protein phosphatase non-receptor type 18 (PTPN18, Homo sapiens, UniProt Q99952); substrate; pH 7.0, 37 °C): 2.7 M⁻¹ s⁻¹
COC(=O)c1scc(C)c1NC(=O)C(C)N(CCO)CCO (stereo not shown)  capacity factor k′ (SCN10A; cell membrane chromatography; higher = stronger binding): 1.2
CNCCCOc1cc(F)c(-c2c(Cl)nc3ncnn3c2N[C@@H](C)C(F)(F)F)c(F)c1  bound compound (Tubulin beta chain/TUBA1B, with eribulin (Sus scrofa, UniProt P02554+Q2XVP4); concentration not given, tubulin 20 µM, added: eribulin): 20 µM
CCCNC(C)C(=O)Nc1c(C)csc1C(=O)OCC (stereo not shown)  capacity factor k′ (SCN10A; cell membrane chromatography; higher = stronger binding): 23
N=C(N)NC(=O)c1nc(Cl)c(N)nc1N  current change (unc-8 (Caenorhabditis elegans, UniProt Q21974, G387E); ion current, two-electrode voltage clamp; Xenopus oocytes coexpressing MEC-2; 30 µM, -85 mV; relative to: uninjected oocytes, positive = inhibition): 0.22 µA
Fc1ccc2nc(CCC#Cc3ccccn3)cn2c1  pKB (Metabotropic glutamate receptor 5 (Grm5, Rattus norvegicus, UniProt P31424); calcium mobilization, negative allosteric modulator; 30 min, added: glutamate): 7.47 ± 0.07 -log M
CIKVAVS  maximum inhibition (human polyclonal IgM rheumatoid factor; binding to mAb II-481; peptide; combined CDR peptides, serum LOP): 0%
Cc1ccc(COc2ccccc2-c2cc(=O)n(C3CCCCC3O)cn2)cc1 (stereo not shown)  change in baseline activity (CHRM1; allosteric agonist, IP1 accumulation; CHO-M1 cells; 10 µM, unit not given; relative to: maximum ACh response): 45.5 ± 4.2
COc1ccc(C)c2sc(NC(=O)c3c(F)cccc3F)nc12  activity (Muscarinic acetylcholine receptor M4 (CHRM4, Homo sapiens, UniProt P08173); calcium mobilization, positive allosteric modulator; CHO expressing hM4 and Gqi5; concentration not given, added: acetylcholine EC20): inactive
CN(C)Cc1cc(OCCC[18F])ccc1Sc1ccccc1N  binding change (Sodium-dependent serotonin transporter (Slc6a4, Rattus norvegicus, UniProt P31652); in vitro autoradiography; 6-OHDA lesioned rat, left striatum brain sections; dose not given): 3.3%
N[C@@H](CCC(=O)O)C(=O)O  permeability ratio (Protein tweety homolog 1 (Ttyh1, Mus musculus, UniProt Q9D3A9); permeant anion, whole-cell patch clamp; HEK-293T co-expressing AQP4; 70 mM, hypo-osmotic solution; relative to: compound over chloride): ~0.26
Cn1ncc2cc(COc3ccccc3-c3cc(=O)n(C4CCCCC4O)cn3)ccc21 (stereo not shown)  change in baseline activity (CHRM1; allosteric agonist, IP1 accumulation; CHO-M1 cells; 1 µM, unit not given; relative to: maximum ACh response): 69.8 ± 2.3
CCCN(Cc1ccncc1F)C(=O)c1cc(C)c(C)s1  Ca2+-ATPase activity (ATP2A2 (Sus scrofa, UniProt P11607); enzyme activity, NADH-coupled; porcine cardiac SR vesicles; up to 50 µM): inactive

Repeated from above:
CCCNC(C)C(=O)Nc1c(C)csc1C(=O)OCC (stereo not shown)  capacity factor k′ (SCN10A; cell membrane chromatography; higher = stronger binding): 23
Cn1ncc2cc(COc3ccccc3-c3cc(=O)n(C4CCCCC4O)cn3)ccc21 (stereo not shown)  change in baseline activity (CHRM1; allosteric agonist, IP1 accumulation; CHO-M1 cells; 1 µM, unit not given; relative to: maximum ACh response): 69.8 ± 2.3
N[C@@H](CCC(=O)O)C(=O)O  permeability ratio (Protein tweety homolog 1 (Ttyh1, Mus musculus, UniProt Q9D3A9); permeant anion, whole-cell patch clamp; HEK-293T co-expressing AQP4; 70 mM, hypo-osmotic solution; relative to: compound over chloride): ~0.26
Cn1cc(-c2ccc(COc3ccccc3-c3cc(=O)n(C4CCCCC4O)cn3)cc2)cn1 (stereo not shown)  change in baseline activity (CHRM1; allosteric agonist, IP1 accumulation; CHO-M1 cells; 1 µM, unit not given; relative to: maximum ACh response): 55.1 ± 2.4
O=c1cc(-c2ccccc2OCc2ccc(Cl)nc2)ncn1C1CCCCC1O (stereo not shown)  ΔpEC50 of ACh (CHRM1; positive allosteric modulator, IP1 accumulation; CHO-M1 cells; 1 µM, 60 min, 37 °C, added: ACh; relative to: ACh alone, higher = stronger potentiation): 0.56 ± 0.08 log units
